Results of several laboratories.
Numbered parts are unrelated; each lists some results of a single study.

Study 1
Target: RNA binding protein fox-1 homolog 2, RRM domain, GST-SBP tag (RBFOX2, Homo sapiens, UniProt O43251-10, residues 100-194)
Method: RNA Bind-n-Seq
Molecule type: RNA
Sample: in vitro
Tested at: 365 nM
Notes: natural RNA segment, single round, ends assumed
Reference: no-protein control
Reading: higher = stronger binding
Endpoint: RBNS enrichment (R)
Constant ends, left off below: GGGAGUUCUACAGUCCGACGAUC … UGGAAUUCUCGGGUGCCAA
Construct (chain): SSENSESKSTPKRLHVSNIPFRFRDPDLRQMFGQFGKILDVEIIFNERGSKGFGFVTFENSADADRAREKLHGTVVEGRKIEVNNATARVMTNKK
AUUCUGGGAGUUGAGAGCUCUGCCAGGGUGAGAUGUUUCCUGAAGAGAGGUUCCCCACCCCUGUAACUCCUCACUGUACUGAUUUACUGGCGCAUGAAAUUCUAUUAAAA: 1.96
CCAGCUCUCAUUGUGUGUGCUCAGGGCUAAGUCUAAACAAGGGUUUGCUGGCCCCCAAGCUGUUGUUUGUUAGGUGAGGUUAAGUAGGGCUCUUCUGGUCCUGUGCAUAC: 3.35
CUAAGACUCACGUGCACGAAUCGAAGAGUAAAGAGACAAUACUUGUGAACGUGUGAACGUUAACACUGUAGUUGCUAGAUCUUAAGCUGCUAAUUGUCGAGAGAGAAUUC: 2.64
CCCCAUUUGAGCUGCUCCUUCCUGUGUGUGCUCUGGGCCCUGCCUCGGCCUCCUGCGCCAAUACUGUGACUUCCAAACAAUGUUACUGCUGGGCACAGCUCUGCGUUGCU: 0.269
GCUGCUUUCUUGUCUUUUAUUUCUAAAAGCCCCCUUAUACCCCACUUUGUGCAGCAAAGAUCCCCGUGCAGGUCACAGCCUGAUUUGUGGCCAGGCUGGACAAAUUCCUG: 2.08
CCACCAUUAUGGUUCCACUGGCUGUUUGUAUAUAGGGUUAUGUAUUAACUCUAGAAUCCCGUGUGCCCUUCUUGCUCACCGAACGUGAGAGUAUGGGCUGAGCAGGGGGA: 0.36
AGAUGGCUGGACAGUGGGAGAGAGCACGUUGUGAAGCAUCCCAGCCUCGUGUUGAGGUUCCAGACUUAGAAACAGACCCCUCUGUACAGGGGGAUUGUGGUGAGUGAGAA: 0.448
CUGGGGACCAGCACAGCACCUGAAGCCAUGUGGGACAGUUGGGCUUUGUUCAUUCUAGCCACGGGGAUGAAAGGGAUCUUUUGCAUUGCAGAGAUUUUAUAUAUAUUUUG: 0.327
CCUUUGCAUGUGAGUAUUAUGUACUACAGUAAGGAAUGGAUGGCUCCUAACUAGCAUGCAACCCUUGGCUUGUUUACUAACCCAAAAGGGCUAAGGCACAGUAUUUGAAA: 38.9
CCAGGUGUGGAUUGACACACCUUUAGUCUCAGGACUGAGGAGGCGAGGCAAGCAGAUCCCUGAGUUUGAGGUAAGCCUGAUUUACAGAGCAAGUUCCAAGACACCAGGCA: 0.477
UAGCCCAGGCUUUGAACUGGCCUUAGCCUUCCACAUGCUAGGAUUAUAGGUAUGAACCAACAUGCCCAGCUCUCUCUUCUCUCGUGAAGUCAUACCCUGUGAGUAACUGG: 0.471
AGGCUGGGGUGACCCUUCCCCCAUCAUUGGGCCCCAACGGGCAUGUCUCCACCGAAUCCAUUUAGAGAAAUGUCAGAGCGAGGGUUGUGUGGACACCCCUCGCUCUGAUG: 0.354

Study 2
Target: Protein C-ets-1 (ETS1, Homo sapiens, UniProt P14921, residues 1-441, Y397A, full length assumed)
UniProt P14921, sequence (whole entry, unmodified, looked up): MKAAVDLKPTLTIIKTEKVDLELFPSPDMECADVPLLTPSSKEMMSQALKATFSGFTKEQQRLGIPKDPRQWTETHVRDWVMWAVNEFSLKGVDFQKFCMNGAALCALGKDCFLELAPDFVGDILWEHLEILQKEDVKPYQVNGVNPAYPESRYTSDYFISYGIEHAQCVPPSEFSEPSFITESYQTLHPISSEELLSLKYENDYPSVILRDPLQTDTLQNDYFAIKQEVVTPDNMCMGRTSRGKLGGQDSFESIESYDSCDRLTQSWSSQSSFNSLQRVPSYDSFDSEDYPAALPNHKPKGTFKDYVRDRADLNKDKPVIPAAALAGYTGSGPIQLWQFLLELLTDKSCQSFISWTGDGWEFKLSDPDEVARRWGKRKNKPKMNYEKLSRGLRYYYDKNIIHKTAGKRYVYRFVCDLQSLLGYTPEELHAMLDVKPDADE
Method: protein-binding microarray
Molecule type: double-stranded DNA, one strand shown
Sample: in vitro
Tested at: not given
Notes: k-mer, scored over probes, only values ≥0.25
Reading: higher = stronger binding
Endpoint: E-score
ATTTCCGA: 0.324
ATATACTG: 0.266
GCACTTCC: 0.33
AAATGGTA: 0.293
CATGGCAA: 0.257
CGCGCGGA: 0.296
CATGTGCC: 0.263
GGGACAAA: 0.251
CCTTGTCA: 0.272
GGCTACGA: 0.251
TTTGCAAA: 0.347
GGAAGTCA: 0.272
ACGTATAC: 0.297
GGATGGCA: 0.286
CCGCGCGG: 0.351
AGTGTACA: 0.312
ATAGCAAA: 0.334
CCGCACCC: 0.253
ACAAATCG: 0.293
CAACAACA: 0.315
ACATTGCA: 0.253
ACTGTCAA: 0.256
TCCGGCAA: 0.333
ATTTGACA: 0.293
CGCGGAAG: 0.335

Study 3
Target: Ras GTPase-activating protein-binding protein 1, full length (G3BP1, Homo sapiens, UniProt Q13283)
UniProt Q13283, sequence (whole entry, looked up): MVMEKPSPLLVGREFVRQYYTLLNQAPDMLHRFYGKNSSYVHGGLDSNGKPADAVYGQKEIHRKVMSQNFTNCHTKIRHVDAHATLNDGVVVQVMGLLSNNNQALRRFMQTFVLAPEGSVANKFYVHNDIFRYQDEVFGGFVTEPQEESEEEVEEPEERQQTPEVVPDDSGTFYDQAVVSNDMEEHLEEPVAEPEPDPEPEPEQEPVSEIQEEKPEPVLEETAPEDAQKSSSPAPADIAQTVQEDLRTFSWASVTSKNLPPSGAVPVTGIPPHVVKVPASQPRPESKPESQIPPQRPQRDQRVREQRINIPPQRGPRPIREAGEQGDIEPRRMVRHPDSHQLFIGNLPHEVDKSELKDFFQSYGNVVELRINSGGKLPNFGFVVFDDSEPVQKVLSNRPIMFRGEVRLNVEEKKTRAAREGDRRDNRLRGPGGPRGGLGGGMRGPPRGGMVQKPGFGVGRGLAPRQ
Method: RNA Bind-n-Seq
Molecule type: RNA
Sample: in vitro
Tested at: 200 nM
Notes: whole 134-nt RNA, ends assumed
Added: 150 mM LiCl
Reference: input library
Reading: higher = stronger binding
Endpoint: log2 enrichment
Library: 7-deaza-guanosine replaces G
Constant ends, left off below: GGGAGUUCUACAGUCCGACGAUC … UGGAAUUCUCGGGUGUCAAGG
AGUCCUGUGCUACACAUCGUAUGUACCGAAUCGGGGAAAAAGGGGAGGGGUUUGGGGAAAGUAUUAUGUUACGCCGUUCGGAUCUGCACU: -0.563
CCUGUGCUACACAUCGUAUGUACCGAAUCGGGCCCCCCCGGCCCCCCCGGGGCCCCCCCGGAAAGUAUUAUGUUACGCCGUUCGGAUCUG: 0.331
AGUCCUGUGCUACACAUCGUAUGUACCGAAUCGGGGUGGGGUUUUUGGGGUUUGGGGAAAGUAUUAUGUUACGCCGUUCGGAUCUGCACU: -0.145
UUUCACAGAGAAGCAAAUGCUGGCACAAGGAUACCCUGCUUACACGACAUCGUGCGCCUGGCUGGGGUACUCAGAUGACACGUUGAAGCA: -0.0429
CAAGUCCUGUGCUACACAUCGUAUGUACCGAAUCGGCCCGGGCCCGGGCCCGGGGAAAGUAUUAUGUUACGCCGUUCGGAUCUGCACUUC: -1.38
UGGCGCCGUUCGACACCAGGCGGAUCCGCUCUGCAGCACGAACCCAUCUCCAGCCGCAGCCGCAGCCGCCGCCCGGGCCGAGGAGCAGCC: 0.306
UCAAGUCCUGUGCUACACAUCGUAUGUACCGAAUCGGUUUGGGGUUUGGUUUGGAAAGUAUUAUGUUACGCCGUUCGGAUCUGCACUUCC: -0.167
UGUGCUACACAUCGUAUGUACCGAAUCGGGGUUUUUUUGGGGAAAAAGGGGUUUUUUUGGGGAAAGUAUUAUGUUACGCCGUUCGGAUCU: -1.02
GCAGGAAGUAAAAACAAAUGGAAAUGCUUCGGAUAGUGGCAGGGGUGGGGGUUGCUAACGAAAGGGUGGGAUGGGAGUGGGUAAAGAGUU: -0.256
UGGGAGCUGGAUUUUGUUUAUUUUUUUAGCUCAUUUCCAGGGGUGGGAAUUUUUUUUUAAUAUGUGUCAUGAAUAAAGUUGUUUUUGAAA: -0.782
CAAGUCCUGUGCUACACAUCGUAUGUACCGAAUCGGGUUUUUGGGUUUGGGUGGGAAAGUAUUAUGUUACGCCGUUCGGAUCUGCACUUC: -0.551

Study 4
Target: Histone acetyltransferase KAT6A, winged helix 1, GST fusion (KAT6A, Homo sapiens, UniProt Q92794, residues 1-85)
Method: protein binding microarray
Molecule type: double-stranded DNA, one strand shown
Sample: in vitro
Tested at: not given
Notes: 8-mer, flanks averaged, mean of 2 arrays, mostly near background
Reference: not given
Reading: higher = stronger binding
Endpoint: E-score
Target sequence (chain): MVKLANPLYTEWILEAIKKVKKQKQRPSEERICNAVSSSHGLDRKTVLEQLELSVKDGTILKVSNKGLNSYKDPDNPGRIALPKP
CCCCGTCC: 0.33
GCCTCGAA: -0.0496
CAGATTTC: -0.13
ACCCTAAC: -0.204
CAGGCAGC: -0.0358
AGACAGGG: -0.0959
CGCTATAA: 0.197
AGGGTCAT: -0.0491
ATTAGGGG: -0.179
ACCTGTAC: -0.0581
TTCGTCAA: -0.196
AGTGGCCC: -0.00905
ATACAATG: -0.0963
GATCTGAA: -0.188
CAGGAAAG: -0.0437
CCTCCGCA: 0.0201

Study 5
Target: Sal-like protein 4, full length isoform A (SALL4, Homo sapiens, UniProt Q9UJQ4, residues 1-1053)
UniProt Q9UJQ4, sequence (whole entry, looked up): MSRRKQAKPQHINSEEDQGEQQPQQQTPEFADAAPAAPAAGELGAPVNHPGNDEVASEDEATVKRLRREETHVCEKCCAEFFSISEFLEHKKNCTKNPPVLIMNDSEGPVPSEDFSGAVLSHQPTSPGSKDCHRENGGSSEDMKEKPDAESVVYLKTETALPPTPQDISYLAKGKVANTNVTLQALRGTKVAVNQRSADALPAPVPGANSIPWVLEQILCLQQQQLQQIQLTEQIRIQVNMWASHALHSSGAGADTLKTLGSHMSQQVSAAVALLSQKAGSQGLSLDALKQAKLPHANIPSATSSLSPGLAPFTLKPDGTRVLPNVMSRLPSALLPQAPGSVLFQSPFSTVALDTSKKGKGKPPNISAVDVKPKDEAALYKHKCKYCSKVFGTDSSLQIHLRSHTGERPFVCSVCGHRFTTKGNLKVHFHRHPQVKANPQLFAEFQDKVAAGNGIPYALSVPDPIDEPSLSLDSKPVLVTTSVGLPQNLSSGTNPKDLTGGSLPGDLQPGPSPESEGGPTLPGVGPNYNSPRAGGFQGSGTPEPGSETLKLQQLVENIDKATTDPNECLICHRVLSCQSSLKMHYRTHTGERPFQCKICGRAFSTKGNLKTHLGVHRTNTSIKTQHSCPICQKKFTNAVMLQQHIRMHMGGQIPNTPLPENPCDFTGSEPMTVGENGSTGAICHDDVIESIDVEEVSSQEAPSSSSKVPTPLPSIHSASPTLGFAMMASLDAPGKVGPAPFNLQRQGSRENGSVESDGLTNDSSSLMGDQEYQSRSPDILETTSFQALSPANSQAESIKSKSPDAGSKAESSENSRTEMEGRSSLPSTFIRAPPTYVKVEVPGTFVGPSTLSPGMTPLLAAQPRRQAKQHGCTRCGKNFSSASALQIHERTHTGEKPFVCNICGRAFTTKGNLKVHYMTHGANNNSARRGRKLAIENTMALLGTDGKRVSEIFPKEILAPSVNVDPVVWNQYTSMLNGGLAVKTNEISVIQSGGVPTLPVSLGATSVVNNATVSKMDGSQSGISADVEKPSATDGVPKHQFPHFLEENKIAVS
Method: universal PBM
Molecule type: double-stranded DNA, one strand shown
Sample: in vitro
Tested at: 600 nM
Notes: 8-mer, flanks averaged, mean of replicates
Reading: higher = stronger binding
Endpoint: E-score
ATGGCCCA: -0.0722
CGTTGCCC: -0.346
CGTTAGCC: -0.0994
ATAACAGC: 0.183
ATTGTACG: 0.15
GTTTCGTA: 0.142
CCCCTAAA: -0.153
ACGGCTAG: -0.148
ACCCGGTG: -0.357
CATAAGAG: 0.211
GCTCCAAA: -0.113
CTGCTATC: -0.0352
AGTTGTTA: 0.138
ATAACGCC: 0.0615
AACTCCAT: 0.0351
GTAATTAC: 0.278
CAAGGTGA: -0.185
AGGACATA: 0.12
CTACAGTC: -0.115
AACTGAGT: 0.0791
ATAAATGG: 0.269
AAGGTGTC: -0.107
CGGTAGGC: -0.301

Study 6
Target: PABPC1L2, full length, GST fusion (mouse, UniProt A0ABA7IW68)
Method: RNAcompete
Molecule type: RNA
Sample: in vitro
Tested at: 20 nM
Notes: 7-mer, probes averaged, single round
Reference: mean of 7-mers
Reading: higher = stronger binding
Endpoint: 7-mer Z-score
Target sequence (chain): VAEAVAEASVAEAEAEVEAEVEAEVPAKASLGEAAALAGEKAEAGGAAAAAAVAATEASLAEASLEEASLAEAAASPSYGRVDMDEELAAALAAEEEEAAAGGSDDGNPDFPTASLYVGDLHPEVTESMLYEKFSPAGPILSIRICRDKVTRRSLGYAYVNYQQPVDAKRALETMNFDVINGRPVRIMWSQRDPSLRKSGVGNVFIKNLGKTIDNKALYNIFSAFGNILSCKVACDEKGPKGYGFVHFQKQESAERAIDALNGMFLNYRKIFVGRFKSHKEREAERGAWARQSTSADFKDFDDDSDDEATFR
CUGCUCG: -0.251
GUCGUCA: -0.389
UGAACUG: -0.142
CGGCCCG: -0.277
UGAUCAG: -0.204
AUAGUAC: -0.139
AGCAUUG: 0.0297
CGUUAUC: -0.374
GUCAGAA: 0.204
UCGCCGG: -0.309
UUUGAUA: -0.17
GAGAGCU: -0.103
CUGUUUC: -0.436
CCAGUAU: -0.219
AGUCCAU: -0.277
CAUUAUA: -0.0156
AAUGUCC: 0.00254
